Published values pooled from the literature.
Every numbered part comes from another study and shows a few of its results, in no order.

Series 1 — method: RNA Bind-n-Seq; molecule type: RNA; matrix: in vitro; tested at: 365 nM; reference: no-protein control; reading: higher = stronger binding
Target: RNA binding protein fox-1 homolog 2, RRM domain, GST-SBP tag (RBFOX2, Homo sapiens, UniProt O43251-10, residues 100-194)
Setting: natural RNA segment, single round, ends assumed
Residues (chain): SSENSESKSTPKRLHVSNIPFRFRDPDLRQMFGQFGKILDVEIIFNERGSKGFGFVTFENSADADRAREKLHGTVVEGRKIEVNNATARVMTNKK
| Strand | RBNS enrichment (R) |
| --- | --- |
| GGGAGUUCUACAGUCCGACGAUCUACUUAACCUCAGAAUCGGGCCAGUUCUGUAGAUCCUCAAGAGAAGCUUCAGUGACUGUCCCUUUGAAUUGCCUCCGAUUUCAAAAAUAAAUAAAUAAAUCUACACGUUUUGGAAUUCUCGGGUGCCAA | 0.593 |
| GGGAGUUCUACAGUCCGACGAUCUCUACCACAUGCAAGUCUGUGUCCACAGAGCCGUUCUUGAACUCCGUAUCAGUACAGCUUUCACCUGGGUUGUCCGUUGUAGUGUCUGGGAAGCUUGAGGGUUCCCUUCUUGGAAUUCUCGGGUGCCAA | 0.532 |
| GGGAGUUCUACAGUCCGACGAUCUGGUGUGGUUACAGGGUCCCCUGCCUGCCUCCAGCCUCCGUGUGCUCCAGGGUUGUGAGCAGAGCAGGAAGGUCAGGUGAGAGUGGCUGUAGGAGGUCCUCCAGCCCGGGUGGAAUUCUCGGGUGCCAA | 1.61 |
| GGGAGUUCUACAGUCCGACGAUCCUACCUGUCAAGGUUUGUGUUACCCUCCUGUAAAUGGUGUACAUAAUGUAUUGUUGGUAAUUAUUUUGGUACUUUUAUGAUGUAUAUUUAUUAAACAGAUUUUUACAAAUUGGAAUUCUCGGGUGCCAA | 0.767 |
| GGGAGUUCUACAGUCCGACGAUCAGAUGCUCAAAGUCCCUUUUCUGUUUGUUUGUUUAUAGAUGAACUAUCUAUCUUAUUUCAGUACUUCGGCAAGAGAGAACCUAACUGUAUCUUUGAGGCGAUAGUAGAACUGGAAUUCUCGGGUGCCAA | 0.329 |
| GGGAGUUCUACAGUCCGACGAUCCUCACCUCCUUCCCAUCCCGCCGAGCGUCCCAGACACUAACUCUUCCCAGAUGAUGACAAUGAAAUUAGUGCCUGUUUUCUUGCAAAUUUAGCACUGGGGACACUUAAAGUGGAAUUCUCGGGUGCCAA | 0.824 |
| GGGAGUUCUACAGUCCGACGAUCCUAAAUAUUUUGUUUAUACUAAGGGACAAUUAUUUUAAGACCAUGGAUUUAAAAAAAAAAAAAAAAACUCUGUUUCUGCAGGGGAUGAUAUUGGUGAGUUGCCAAAGAAGUGGAAUUCUCGGGUGCCAA | 0.51 |
| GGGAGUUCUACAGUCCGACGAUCAGUACCUAUCCUUGUGUUUCUGAUGCAGUGGUAGCAUUGGUUCAAGUUCUCUCCUGCUGUGGUCAGAGUUGCUUCGAUGUUGGCCAAGUGCUUUUCUUCUUGGGCUCCCUUGGAAUUCUCGGGUGCCAA | 0.309 |
| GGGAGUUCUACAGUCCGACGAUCAGACCAGUCAGCCAGUUAGUAGAAACCCUGACUCUACUAAGAAAAUACAAAAAUUAGCUGGGCAUGGUGGCAUGCGCCUGUAGUCUCAGCUACCUGGGAGGCUGAGGAAGUGGAAUUCUCGGGUGCCAA | 1.55 |
| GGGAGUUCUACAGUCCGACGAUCUUCAUUUAGUUUUCUUUUUCUUUCUCUUGACUCCUCCUUUUAGGAUGUCCAGAUGUUGUAAAAAAACAAAAACAAAAAACCCAACAGCUGCAGUUCAAUACAACUGCUCUUGGAAUUCUCGGGUGCCAA | 0.297 |
| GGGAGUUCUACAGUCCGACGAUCAAACAUUCCACUCCUGCUUUCCUAAGGAUGAAACAGUGAUAAUGUGAACUCAAAUGAGGUUUCCUGGGUAAUGUGACACCUGCAGAAACUAUAGAGCGUCAUUUAUACGUUGGAAUUCUCGGGUGCCAA | 0.384 |
| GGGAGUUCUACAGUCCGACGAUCCCCCAGAGGCCGAGCAGGGAGGGAGUGGAGCUGAGCCCCUGAAAUCCUGCACGUAGCUGAGUGAGCUUAAGCCUUUAGUUUGGGGUGUGAAUAGGGAUCUGUGGUAGCCAUGGAAUUCUCGGGUGCCAA | 6.36 |

Series 2 — method: protein binding microarray; molecule type: double-stranded DNA, one strand shown; matrix: in vitro; tested at: not given; reference: not given; reading: higher = stronger binding
Target: Histone acetyltransferase KAT6A, winged helix 1, GST fusion (KAT6A, Homo sapiens, UniProt Q92794, residues 1-85)
Setting: 8-mer, flanks averaged, mean of 2 arrays, mostly near background
Construct (chain): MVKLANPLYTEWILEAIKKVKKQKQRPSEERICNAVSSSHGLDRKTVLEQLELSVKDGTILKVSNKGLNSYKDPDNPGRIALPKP
| Strand | E-score |
| --- | --- |
| ATCTGGTC | -0.203 |
| GCAACGGC | 0.334 |
| GACGGTTA | 0.204 |
| AGTAGGCA | -0.23 |
| AGTGTCAT | -0.0699 |
| CTTGTCCC | 0.191 |
| AAAGTGCG | 0.135 |
| ACAAATAT | -0.224 |
| AGCATCCG | 0.0182 |
| CCGCCATC | 0.13 |
| TATTAGAA | -0.208 |
| AACGTGTA | -0.166 |
| AGGTTCAC | -0.0187 |
| AGTCGACC | 0.00065 |
| CCTTGCAC | -0.131 |
| GCCGAAAA | 0.148 |
| CTGCGGGA | 0.185 |
| ACGGCACG | 0.323 |

Series 3 — method: RNAcompete; molecule type: RNA; matrix: in vitro; tested at: 20 nM; setting: 7-mer, probes averaged, single round; reference: mean of 7-mers; reading: higher = stronger binding
Target: PABPC1L2, full length, GST fusion (mouse, UniProt A0ABA7IW68)
Construct (chain): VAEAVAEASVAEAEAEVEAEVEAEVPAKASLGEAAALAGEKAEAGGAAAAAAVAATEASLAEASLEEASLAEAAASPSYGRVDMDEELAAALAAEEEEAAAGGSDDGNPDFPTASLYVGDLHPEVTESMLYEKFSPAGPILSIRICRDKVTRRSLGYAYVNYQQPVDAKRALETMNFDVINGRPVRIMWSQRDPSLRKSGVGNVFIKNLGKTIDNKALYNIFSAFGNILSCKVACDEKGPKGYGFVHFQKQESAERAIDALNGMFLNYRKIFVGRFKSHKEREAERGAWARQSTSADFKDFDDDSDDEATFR
| Strand | 7-mer Z-score |
| --- | --- |
| UGUCUCA | -0.206 |
| AGCUCUG | -0.331 |
| AUUGAGA | 0.204 |
| CAAUGAU | 0.0152 |
| CAGAGAG | 0.0279 |
| AUGUAGG | 0.117 |
| AUCGUAC | -0.148 |
| UGACGCC | -0.246 |
| GAUGUUA | -0.215 |
| GUCCUCU | -0.333 |
| UCAUACA | -0.0609 |
| ACCCCCC | -0.499 |
| GCUUUUG | -0.237 |
| GACUAAG | 0.0352 |
| UUGAUCG | -0.17 |
| CUCUCCC | -0.354 |
| UCCGCAU | -0.287 |
| CUGUCUA | -0.364 |
| GCCAAGG | -0.0554 |
| UGCCCCA | -0.184 |
| AUGCAGA | 0.115 |
| UGGCAAC | 0.425 |
| AGUAGGC | 0.0134 |
| GGAUAAG | 0.128 |
| UGAGUAU | -0.166 |

Series 4 — method: RNA Bind-n-Seq; molecule type: RNA; matrix: in vitro; tested at: 200 nM; setting: whole 134-nt RNA, ends assumed; added: 150 mM KCl; reference: input library; reading: higher = stronger binding
Target: Ras GTPase-activating protein-binding protein 1, full length (G3BP1, Homo sapiens, UniProt Q13283)
Sequence of UniProt Q13283 (whole entry, looked up): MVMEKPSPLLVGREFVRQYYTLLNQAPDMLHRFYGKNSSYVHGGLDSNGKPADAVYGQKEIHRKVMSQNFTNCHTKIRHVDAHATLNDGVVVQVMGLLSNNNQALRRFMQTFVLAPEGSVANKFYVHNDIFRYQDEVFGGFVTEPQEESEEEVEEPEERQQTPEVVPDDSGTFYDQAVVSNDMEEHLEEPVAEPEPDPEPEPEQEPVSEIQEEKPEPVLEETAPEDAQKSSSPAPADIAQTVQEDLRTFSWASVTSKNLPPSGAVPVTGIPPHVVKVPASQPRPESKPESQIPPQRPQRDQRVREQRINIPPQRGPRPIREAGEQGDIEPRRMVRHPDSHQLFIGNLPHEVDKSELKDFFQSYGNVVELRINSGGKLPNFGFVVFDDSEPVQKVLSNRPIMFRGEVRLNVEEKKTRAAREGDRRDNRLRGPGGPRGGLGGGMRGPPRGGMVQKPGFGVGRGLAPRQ
| Strand | log2 enrichment |
| --- | --- |
| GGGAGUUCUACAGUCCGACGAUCUGGGAGGUGGAUAUUGUUUAUUUUUUUAGCUCAUUUCCAGGGGUGGGAAUUUUUUUUUAAUAUGUGUCAUGAAUAAAGUUGUUUUUGAAAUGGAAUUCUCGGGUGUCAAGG | 0.133 |
| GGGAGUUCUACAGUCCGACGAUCAGUCCUGUGCUACACAUCGUAUGUACCGAAUCGGCCCCCGGCCCCCGGGGCCCCCGGAAAGUAUUAUGUUACGCCGUUCGGAUCUGCACUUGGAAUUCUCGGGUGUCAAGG | -0.881 |
| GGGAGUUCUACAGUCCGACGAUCGAAACUACCCGUGUGUAAAAAGAAGAUUGGCUUAAAAUGGCUACUGUGAUGGGAACAGUGUCUUAGGGAGAUGCAGCUUGGACUUGAGGUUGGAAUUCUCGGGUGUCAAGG | 0.231 |
| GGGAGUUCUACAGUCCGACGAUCACGCUCCAUGAAAGCUAGGAGGGAGUGAAAUAUCAGUGAUCAUCGCAAGGAAGGAGGCAGACAAGAGUAAGGCACACCUGACUCUUAGGAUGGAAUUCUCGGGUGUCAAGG | -0.395 |
| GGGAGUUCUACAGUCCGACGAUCGUCCUGUGCUACACAUCGUAUGUACCGAAUCGGGUUUUUGGGUUUUUGGGAAAAAGGGAAAGUAUUAUGUUACGCCGUUCGGAUCUGCACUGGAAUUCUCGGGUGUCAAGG | -0.585 |
| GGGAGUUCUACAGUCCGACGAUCCAAGUCCUGUGCUACACAUCGUAUGUACCGAAUCGGUUUUUGGAAAGGUUUUUGGAAAGUAUUAUGUUACGCCGUUCGGAUCUGCACUUCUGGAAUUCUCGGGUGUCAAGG | -1.06 |
| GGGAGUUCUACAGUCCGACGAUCUAGUGAUGAAAAAUUUCUCCCUUCUAGGUUUCCCUUGGGGGCUUUGAAAUAACACCACCAGUGGUCUUAAGGUUGAAGUGUGGUUCAGGGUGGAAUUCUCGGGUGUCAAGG | -0.238 |
| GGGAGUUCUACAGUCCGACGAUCCCUGUGCUACACAUCGUAUGUACCGAAUCGGGUUUUUUGGGUUUUUUGGGGUUUUUUGGGGAAAGUAUUAUGUUACGCCGUUCGGAUCUGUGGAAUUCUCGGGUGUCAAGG | -0.707 |
| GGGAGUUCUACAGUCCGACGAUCGUCCUGUGCUACACAUCGUAUGUACCGAAUCGGGGUGGGGAAAAAGGGGUUUUUGGGGAAAGUAUUAUGUUACGCCGUUCGGAUCUGCACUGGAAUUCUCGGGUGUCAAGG | 0.396 |
| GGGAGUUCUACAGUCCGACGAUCACCAUUCAGGUGGGCAUCUUUGGGAAGUGGGGCAAGGGGGGGAUAGGGAGGGGGGUAACACUUUGGGAACAGGUGGUCCCAGGUCGUUUCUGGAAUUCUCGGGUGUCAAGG | 0.852 |

Some of these lines once more (series 2):
| Strand | E-score |
| --- | --- |
| AGTGTCAT | -0.0699 |
| CTTGTCCC | 0.191 |
| AAAGTGCG | 0.135 |
| ACAAATAT | -0.224 |
| AGCATCCG | 0.0182 |
| CCGCCATC | 0.13 |
| TATTAGAA | -0.208 |
| AACGTGTA | -0.166 |
| AGGTTCAC | -0.0187 |
